Measured values of several laboratories.
Lines come from different studies, so protocols differ. “And” joins repeats or separate records; there may be more than shown.
Target: Homeodomain-interacting protein kinase 3 (HIPK3, Homo sapiens, UniProt Q9H422)

| SMILES | assay | setting | how to read | quantity | result |
| --- | --- | --- | --- | --- | --- |
| CC(C)=CC1OC(C)(C)C2C=C3C(=O)C(Cl)=CC(O)C3C3C(O)C4OC4C(=O)C132 (centres unmarked) | cell-free assay, competition with immobilised ligand | 10 µM | – | remaining binding | 75% |
| C=CC(=O)N1Cc2nc(-c3cc(-c4cc(Cl)cnc4Cl)c(F)cc3F)n(-c3ccncn3)c2C1 | cell-free assay, inhibitor | 1 µM | – | inhibition | 5.5% |
| Cc1cccc(O[C@H]2CCC[C@@H](C(C)CNCc3ccncc3)C2)c1 (relative stereo) | enzyme activity, inhibitor | 10 µM | – | inhibition | -7% |
| Cc1cnc2nc1Nc1cccc(c1)COC/C=C/COCc1cc(ccc1OCCN1CCOCC1)N2 | binding | 0.1 µM | – | remaining binding | 87% |
| NC(=O)C[C@H]1CCc2sc3ncnc(O[C@H]4CC[C@H](N5CCOCC5)CC4)c3c21 | enzyme activity, inhibitor | 10 µM | – | inhibition | 1% |
| CCN1CCN(Cc2ccc(C(=O)Nc3ccc(C)c(NCc4cnc5[nH]ccc5c4OC)c3)cc2C(F)(F)F)CC1 | binding, competition with immobilised ligand | 1 µM | – | remaining binding | 51% |
| Cc1ccc(-c2c(/C=C(\C#N)C(=O)NC(C)C)n(CCCO)c3ncnc(N)c23)cc1 | cell-free assay, competition with immobilised ligand | 1 µM | – | remaining binding | 100% |
| COCC12C(=O)NC3C4(C(OC)CC1O)C1CC5(O)C(OC)C(O)C(OC(C)=O)(C1C5OC(=O)c1ccccc1)C3(O)C(OC)C24 (centres unmarked) | kinase activity, inhibitor, ProQinase kinase profiling | 25 µM | baseline: control | remaining activity | 97% and 94% |
| CNC(=O)C1CCN(c2cc(C)c(F)cc2NC(=O)c2ccc(-c3cc(O)ccc3C)c(C)c2)CC1 | binding, competition with immobilised ligand | 1 µM | – | remaining binding | 100% |
| CCn1cc(C(=O)O)c(=O)c2c(N)c(F)c(NC3CCCCC3)cc21 | kinase activity | 0.1 µM, with: ATP at Km | – | inhibition | 14.7% |
| CNC1C[S+]2CC[S+]3CC[S+](C1)[Ru-4]321([N]=C=S)[n]2c3ccc(OC)cc3c3c4c(c5cc(F)c[n+]1c5c32)C(=O)NC4=O (centres unmarked) | KinomeScan | 0.1 µM | baseline: untreated | remaining binding | 95% |
| COc1cc(Nc2nc(C)cc(-c3cnn4nc(OC)ccc34)n2)cc(C(F)(F)F)c1 | inhibitor | 1 µM | baseline: control | remaining activity | 95% |
| C=CC(=O)Nc1cccc(-c2cnc3[nH]cc(C(=O)NC(C)(C)C)c3n2)c1 | enzyme activity, inhibitor | 0.1 µM | – | inhibition | 47% |
| CN1CCN(Cc2ccc(-c3ccc(CO[C@H]4CCC[C@@H]4NC(=O)c4cc(-c5cnn(C)c5)cnc4N)cc3)cc2)CC1 | enzyme activity, inhibitor | 0.1 µM | – | inhibition | 3% |

A few entries again:
| SMILES | assay | setting | how to read | quantity | result |
| --- | --- | --- | --- | --- | --- |
| CNC(=O)C1CCN(c2cc(C)c(F)cc2NC(=O)c2ccc(-c3cc(O)ccc3C)c(C)c2)CC1 | binding, competition with immobilised ligand | 1 µM | – | remaining binding | 100% |
| CCn1cc(C(=O)O)c(=O)c2c(N)c(F)c(NC3CCCCC3)cc21 | kinase activity | 0.1 µM, with: ATP at Km | – | inhibition | 14.7% |
